Results pooled from the literature.
Protocols differ between the studies behind these lines. ± gives the spread as reported.
USP13 ZnF-UBD domain: Ubiquitin carboxyl-terminal hydrolase 13, ZnF-UBD domain (USP13, Homo sapiens, UniProt Q92995)
Chain of UniProt Q92995 (whole entry, looked up): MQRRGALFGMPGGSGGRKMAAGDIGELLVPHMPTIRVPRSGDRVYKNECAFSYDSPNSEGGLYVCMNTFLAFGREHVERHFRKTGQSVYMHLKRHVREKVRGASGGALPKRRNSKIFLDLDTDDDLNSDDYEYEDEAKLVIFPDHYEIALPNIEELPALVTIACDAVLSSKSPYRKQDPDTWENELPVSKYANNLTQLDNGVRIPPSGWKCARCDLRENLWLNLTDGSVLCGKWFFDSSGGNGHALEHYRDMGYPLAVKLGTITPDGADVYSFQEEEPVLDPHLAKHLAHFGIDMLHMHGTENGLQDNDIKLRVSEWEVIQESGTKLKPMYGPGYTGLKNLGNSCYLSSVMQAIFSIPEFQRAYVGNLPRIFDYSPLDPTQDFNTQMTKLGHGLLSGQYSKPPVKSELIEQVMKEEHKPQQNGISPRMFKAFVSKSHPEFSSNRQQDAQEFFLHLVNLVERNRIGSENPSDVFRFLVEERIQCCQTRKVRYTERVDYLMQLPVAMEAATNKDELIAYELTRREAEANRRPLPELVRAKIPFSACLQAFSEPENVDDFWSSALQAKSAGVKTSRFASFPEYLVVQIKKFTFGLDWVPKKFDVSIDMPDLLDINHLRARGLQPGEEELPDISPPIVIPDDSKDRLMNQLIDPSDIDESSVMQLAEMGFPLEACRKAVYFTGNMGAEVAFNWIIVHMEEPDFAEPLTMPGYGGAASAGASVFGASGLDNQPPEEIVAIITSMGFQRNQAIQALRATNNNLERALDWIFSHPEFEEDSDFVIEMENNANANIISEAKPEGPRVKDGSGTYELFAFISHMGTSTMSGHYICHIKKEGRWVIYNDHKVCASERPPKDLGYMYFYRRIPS

`COCCOc1cnc2ccn([C@H](C)c3nnc4c(F)cc(-c5cnn(C)c5)cn34)c(=O)c2c1` gave a Ctrough of 100 ng/mL (patients, plasma; oral, 150 mg once daily, day 28 24 h postdose).
`O=C(O)CCC(=O)O.[2H]C([2H])([2H])Oc1cc(C)c2[nH]ccc2c1CN1CC[C@@H](C2CC2)C[C@H]1c1ccc(C(=O)O)cc1`: “subjects with allergic dermatitis TEAE” 0% (multiple ascending dose; healthy Chinese subjects; 300 mg once daily).
The CSF concentration of `Cc1cc([C@H]2C[C@H]3[C@@H](CF)SC(N)=N[C@@]3(c3ccc(F)cc3F)CO2)on1` is reported as 1570 nM (male 129/SVE mouse, CSF; subcutaneous, 100 mg/kg, 1 h).
The QT interval of `COc1ccc2c(c1)CN(C(=O)CCN1CCC(Cc3ccccc3)CC1)CC[S@@+]2[O-]` is reported as 200 ± 7 ms (telemetry; conscious male beagle dogs; intravenous, 2 mg/kg, 0.5 h).
`Cc1cc(NC2CCN(C(=O)OC3CCN(C(=O)/C=C/CN(C)C)C3)CC2)n2ncc(C(C)C)c2n1` (stereo not shown) — result for “patients with TEAE”: 2% (CTCAE v4.0, measured: Vomiting; patients with advanced solid tumours; oral, dose not given, all schedules, grade 3 or higher).
For `Cc1ccc(Sc2ccccc2N2CCNCC2)c(C)c1`, “participants with TEAE” read 0% (measured: Somnolence; healthy adult women; oral, 5 mg daily, 12 days).
`Cc1ccc([C@@H]2O[C@H](CO)[C@@H](O)[C@H](O)[C@H]2O)cc1Cc1ccc(-c2ccc(F)cc2)s1`: “urinary sodium excretion change” -25.6 mEq (Japanese type 2 diabetes patients; 25 mg, day 6, 24 h urine collection; reference: baseline).
`CCn1c(=O)c(-c2cc(NC(=O)Nc3ccccc3)c(F)cc2Br)cc2cnc(NC)cc21` — result for “participants with grade ≥ 3 TEAE”: 0% (measured: accidental overdose; healthy human, matched to mild hepatic impairment; oral, 50 mg single dose).
`Cn1cc([C@H]2COC[C@@H](c3ccc(C(F)(F)F)cc3)N2)cn1` has a solubility of greater than 750 µM (shake-flask, LC-HRMS; aqueous buffer; 16 h, pH 6.8).
Under “change in QTcB interval”, `CCCCOC(=O)N1CCN(C(=O)[C@H](CP(=O)(O)O)NC(=O)c2cc(N3CC[C@H](OC)C3)nc(-c3ccccc3)n2)CC1` is recorded as -3.2 ± 15 ms (human; subcutaneous, 16 mg, 1 h post-dose; reference: baseline).
`CNCCOC12CC3(C)CC(C)(CC(Cn4ncc(-c5ccc(N6CCc7cccc(C(=O)Nc8nc9ccccc9s8)c7C6)nc5C(=O)O)c4C)(C3)C1)C2` — result for “QRS duration change”: 0 ms (beagle dog, male, anaesthetised; intravenous bolus, 0.03 mg/kg, 90 min; reference: baseline).
For `CCc1cc(C(=O)NC)c2nccc(N3CCc4c(cc(Cn5ccnc5)cc4-c4cn(C)nc4C(F)(F)F)C3=O)c2c1`, “change in clinical chemistry or haematology parameter” read 6.9% (measured: UREA; Sprague Dawley rat; oral, 50 mg/kg once daily, 7 days; reference: vehicle).
The Cmax of `COc1cccc(-c2n[nH]c(SCc3ccccn3)n2)c1OC` is reported as 10900 ng/mL (Sprague-Dawley rats, male, plasma; intravenous, 1.0 mg/kg, single dose).
`Cn1cc(-c2ccc(-c3cncc(Cl)c3N3CCC4(CCNC4=O)CC3)cc2)cn1`: “log2 fold change” 2.06 (COLO 205; gene expression, microarray, measured: FSCN1 mRNA; concentration not given, 2 h; reference: untreated cells).
`CNC(=O)c1ccc(-c2cnc3ncc(Cc4ccc5ncccc5c4)n3n2)cc1F`: “patients with adverse event” 16% (measured: Dizziness, all grades; cancer patients; oral, dose not given, dose escalation, any causality).
With `O=c1[nH]c(=O)n([C@H]2C[C@H](O)[C@@H](CO)O2)cc1CCCC[18F]` the biodistribution was 0.08 ± 0.01 %ID/g (male CD-1 nu/nu mice, RG2 tumour, brain; intravenous, dose not given, 2 h).
For `CCCOc1ccc(-c2ccc(C#N)cc2)cc1`, the placental accumulation was 164 ± 182 ng/g (Sprague-Dawley rat, female, placenta; 1000 ng/mL in perfusate, 50 (unit not given), middle dose, mixture of 21 LCMs).
`O=S(=O)(c1ccc(-c2ccc3nccc(Nc4ccncn4)c3c2)cc1)N1CCOCC1` gave a brain concentration of 87.4 ng/g (female BALB/c mice, brain; intraperitoneal, 10 mg/kg, 0.08 h, mean).
`C=CC(=O)N(C)CCOc1c(N)ncnc1-c1cc(F)cc(NC(=O)c2ccc(C3CC3)cc2F)c1C` gave an AUC of 1280 ng·h/mL (human, plasma; oral, 400 mg once daily, day 12).
The Cmin of `C[C@H](CCC(=O)NCCS(=O)(=O)O)[C@H]1CC[C@H]2[C@@H]3CC[C@@H]4C[C@H](O)CC[C@]4(C)[C@H]3C[C@H](O)[C@]12C` is reported as 6.85 ± 1.76 nM (human, plasma; control).
For `COC(=O)c1ccc([C@@H]2COC[C@H](c3ccc(CN4CCOCC4)cc3)N2)cc1`, the solubility was greater than 750 µM (shake-flask, LC-HRMS; aqueous buffer; 16 h, pH 6.8).
For `CN(C)C(=N)N=C(N)N`, “subjects with adverse event” read 0% (measured: thirst; healthy men; oral, dose not given, 8 days, treatment-emergent, crossover trial).
`NC1(C(=O)N[C@@H](CCO)c2ccc(Cl)cc2)CCN(c2nc[nH]c3nccc2-3)CC1` — result for “incidence of Diarrhoea”: 0% (metastatic CRPC patients; 320 mg b.i.d., grade 3 to 4, treatment-related, together with: enzalutamide 160 mg daily).
`O=C(CCCCCCC(=O)Nc1ccc(CC[18F])cc1)NO` gave a tissue uptake of 0.4 ± 0.1 %ID/g (athymic nu/nu male mice, LNCaP xenograft, brain; intravenous, 2 h).
Under “nucleoside remaining fraction”, `CO[C@@H]1[C@H](O)[C@@H](CO)O[C@H]1n1c([N+](=O)[O-])nc2c(=O)[nH]c(N)nc21` is recorded as 0.241 (depurination, RP-HPLC; citrate-phosphate buffer 0.5 mM; 1608 min, pH 2, 37 °C).
The concentration decrease of `O=C(O)CCCCCN1C(=O)/C(=C2/C(=O)N(Cc3ccc(F)cc3)c3ccccc32)SC1=S` is reported as roughly 36% (HPLC; 50 mM phosphate buffer; 10 µM, 48 h, pH 7).
For `CCOc1c([C@H](C)n2nc(C)c3c(N)ncnc32)cc(Cl)c(F)c1[C@@H]1CNC(=O)C1`, the Cmax was 3270 ± 775 nM (patients, monotherapy; oral, 30 mg once daily, cycle 1 day 1).
`CSc1nc(C)c(CCC(=O)O)c(=O)[nH]1` has a Kd of greater than 1000 µM (USP13 ZnF-UBD domain).
The biodistribution of `O=c1[nH]c(=O)n([C@H]2C[C@H](O)[C@@H](CO)O2)cc1CCC[18F]` is reported as 0.48 ± 0.24 %ID/g (male CD-1 nu/nu mice, RG2 tumour, kidney; intravenous, dose not given, 2 h).
`CCOC(=O)N1C[C@@H](c2cnn(C)c2)N[C@@H](c2ccc(C#N)cc2)C1` gave a solubility of greater than 750 µM (shake-flask, LC-HRMS; aqueous buffer; 16 h, pH 6.8).
`CN(CC#N)C(=O)C[C@H](Nc1nc2ccccc2[nH]1)c1cccc(C(F)(F)F)c1` gave an apparent clearance of 12.5 ± 0.71 L/h (human; intravenous infusion, 2 mg/kg, 1 mg/mL formulation).
Under “maximum ACTH level”, `N#Cc1ccc2c(c1)[C@H]1CCCN(C(=O)c3ccc4[nH]cnc4c3)[C@H]1C2` is recorded as 24.4 pmol/L (human; 10 mg, day 15).
For `O=C1NCCc2nc(OCc3cccc(F)c3)ccc21`, “Irwin test score” read 0 (measured: Mydriasis; Sprague-Dawley rat male; oral, 100 mg/kg, 30 min; direction not given).
With `Cn1cc([C@@H]2COC[C@@](C)(c3ccccc3)N2)cn1` the solubility was greater than 750 µM (shake-flask, LC-HRMS; aqueous buffer; 16 h, pH 6.8).
`O=C(Nc1nc2cccc(-c3ccc(CN4CCS(=O)(=O)CC4)cc3)n2n1)C1CC1`: “treatment-emergent adverse events” 0% (measured: non-infective cystitis; rheumatoid arthritis patients; oral, 30 mg once daily, 4 weeks, any relatedness).
`C=CC(=O)NC1CCN(c2ncc3ncnc(Nc4ccc(Oc5ccc6c(c5)ncn6C)c(C)c4)c3n2)CC1` — result for “participants with cough”: 6.3% (human, male; oral, 240 mg, treatment-related adverse event).
The solubility of `CCOC(=O)N1C[C@@H]([C@H](C)CC)N[C@@H](C2CC2)C1` is reported as greater than 750 µM (shake-flask, LC-HRMS; aqueous buffer; 16 h, pH 6.8).
For `Cc1cc(C)c(CNC(=O)c2cc(Cl)c3c(c2C)O[C@@](C)([C@H]2CC[C@H](N(C)C)CC2)O3)c(=O)[nH]1`, “confusional state grade ≥3” read 4.2% (human relapsed/refractory NHL; oral, 200 mg once daily, onset day 1 to 14).
`O=C(O)CNc1ncnc2ccccc12` gave a Kd of greater than 1000 µM (USP13 ZnF-UBD domain).
The Cmax of `CCc1nc(C(N)=O)c(Nc2ccc(N3CCC(N4CCN(C)CC4)CC3)c(OC)c2)nc1NC1CCOCC1` is reported as 221 ng/mL (Japanese patients, plasma; oral, 200 mg, cycle 0 day -2, single dose, mean).
`O=c1[nH]c(=O)n([C@@H]2O[C@H](CO)[C@@H](O)[C@@H]2F)cc1CCCCC[18F]` has a biodistribution of 0.02 ± 0.01 %ID/g (nude mice, RG2 tumour, brain; intravenous, dose not given, 2 h).
`CCC(=O)O[C@]1(C(=O)SCF)[C@H](C)C[C@H]2[C@@H]3C[C@H](F)C4=CC(=O)C=C[C@]4(C)[C@@]3(F)[C@@H](O)C[C@@]21C` — result for “central volume of distribution”: 0.63 ± 0.16 L/kg (three-compartment model; rat, plasma; intravenous, 90 nmol/kg).
`O=C(OC(C(F)(F)F)C(F)(F)F)N1CCN(Cc2cccc(Oc3ccccc3)c2)CC1` has a Ktrans of 0.0008 min⁻¹ (PET blocking study; rhesus monkey, brain THA; 0.03 mg/kg, compound pretreatment, together with: [18F]T-401 tracer).
With `CCC[C@H]1CC[C@H](c2ccc(C#N)cc2)CC1` the placental accumulation was 172 ± 76.5 ng/g (Sprague-Dawley rat, female, placenta; 1000 ng/mL in perfusate, 50 (unit not given), middle dose, mixture of 21 LCMs).
`CC[C@H](C)[C@H](NC(=O)CN)C(=O)N[C@@H](CC(C)C)C(=O)N[C@@H](CC(=O)O)C(=O)N[C@@H](C)C(=O)N[C@H](C(=O)N[C@@H](CC(C)C)C(=O)N[C@@H](CC(=O)O)C(=O)N[C@@H](C)C(=O)N[C@H](C(=O)N[C@@H](CCCCN)C(=O)N[C@@H](C)C(=O)N[C@H](C(=O)N[C@@H](C)C(=O)N[C@@H](CCCCN)C(=O)N[C@@H](C)C(=O)N[C@H](C(=O)N[C@@H](CCCCN)C(=O)N[C@@H](C)C(=O)N[C@@H](CCCCN)C(=O)N[C@@H](C)C(=O)NCC(N)=O)[C@@H](C)CC)[C@@H](C)CC)[C@@H](C)CC)[C@@H](C)CC` gave a helical content of 100% (circular dichroism; 30% TFE; 100 µM).
`CCN1CCN(Cc2ccc(NC(=O)c3ccc(C)c(NC(=O)c4cncc(-c5cccs5)c4)c3)cc2C(F)(F)F)CC1` has a half-life of 1.94 h (C57BL/6 mice, epithelial lining fluid; intraperitoneal, 30 mg/kg).
`CC[C@H](Nc1ncnc2[nH]cnc12)c1oc2ccccc2c(=O)c1-c1cccc(F)c1` — result for “elimination rate constant”: 5.56e-05 ± 2.24e-05 s⁻¹ (human patients, plasma; oral, 600 mg twice daily, together with: romidepsin 12 mg/m2).
`CO[C@H]1C[C@@H]2CC[C@@H](C)[C@@](O)(O2)C(=O)C(=O)N2CCCC[C@H]2C(=O)O[C@H]([C@H](C)C[C@@H]2CC[C@@H](OC(=O)NCCOCCOCCOCCOCCOCCOCCOCCOCCC(=O)N3CCc4cc(Cn5nc(-c6ccc7oc(N)nc7c6)c6c(N)ncnc65)ccc4C3)[C@H](OC)C2)C[C@@H](O)[C@H](C)/C=C(\C)[C@@H](O)[C@@H](OC)C(=O)[C@H](C)C[C@H](C)/C=C/C=C/C=C/1C` — result for “AUClast accumulation ratio”: 1.6 (human, plasma; intravenous, 10 mg, Cycle 1, 2 h infusion; reference: Day 15 over Day 1).
`C=CC(=O)N1CCC(c2ccc(C(N)=O)c(-c3ccc(Oc4ccccc4)cc3)n2)CC1`: “incidence of serious blood count decrease” 0.9% (CTCAE 4.03; patients with relapsed/refractory MCL; oral, dose not given).

A few entries again:
`C=CC(=O)N(C)CCOc1c(N)ncnc1-c1cc(F)cc(NC(=O)c2ccc(C3CC3)cc2F)c1C` gave an AUC of 1280 ng·h/mL (human, plasma; oral, 400 mg once daily, day 12).
The Cmin of `C[C@H](CCC(=O)NCCS(=O)(=O)O)[C@H]1CC[C@H]2[C@@H]3CC[C@@H]4C[C@H](O)CC[C@]4(C)[C@H]3C[C@H](O)[C@]12C` is reported as 6.85 ± 1.76 nM (human, plasma; control).
For `COC(=O)c1ccc([C@@H]2COC[C@H](c3ccc(CN4CCOCC4)cc3)N2)cc1`, the solubility was greater than 750 µM (shake-flask, LC-HRMS; aqueous buffer; 16 h, pH 6.8).
